# Measured values collected from several papers.
# Numbered parts are unrelated; each lists some results of a single study. Substitutions count along the parent as printed.

# Study 1 — target: TEF, bZIP domain (human); technique: DHFR protein complementation; medium: yeast; baseline: wild-type JUN-FOS pair; reading: higher = stronger binding
# Setting: single substitutions, most at no-binding floor
# Starting sequence: JUN, bZIP domain (human); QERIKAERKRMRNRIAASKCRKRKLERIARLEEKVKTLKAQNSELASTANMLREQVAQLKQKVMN; partner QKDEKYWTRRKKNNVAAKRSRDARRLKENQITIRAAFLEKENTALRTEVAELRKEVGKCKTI
Variant,binding fitness [natural log]
A46T,-1.34
A49H,-1.62
A49E,-1.51
L31C,-1.49
N42W,-1.48
L31I,-1.49
E32V,-1.4
K36M,-1.52
L38E,-1.53
L38W,-1.54
V56A,-1.48
K39I,-0.889
A49G,-1.5
R53M,-1.44
K34M,-1.48

# Study 2 — technique: RNA Bind-n-Seq; molecule type: RNA; medium: in vitro; tested at: 365 nM; baseline: no-protein control; reading: higher = stronger binding
# Target: RNA binding protein fox-1 homolog 2, RRM domain, GST-SBP tag (RBFOX2, Homo sapiens, UniProt O43251-10, residues 100-194)
# Setting: natural RNA segment, single round, ends assumed
# Shared flanks, not repeated: GGGAGUUCUACAGUCCGACGAUC … UGGAAUUCUCGGGUGCCAA
# Residues (chain): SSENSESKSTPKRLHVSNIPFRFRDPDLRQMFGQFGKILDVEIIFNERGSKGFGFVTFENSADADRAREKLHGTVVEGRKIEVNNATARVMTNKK
Oligonucleotide,RBNS enrichment (R)
AUGUAGGGGACGUCAUGUCGUUUUCAGUGACUGUCACUACCAUCCCUGCCAGUCAAGCAAUGAAUCCCAGCAGCCAUGGCCAGACAAUUCCUGUUCAGACUUUUCCUGAU,0.375
AGCUUAUUUCAGUAGUCAAGUUACCUGACAUGAUAAUUAUUUCUGCAGGAUAAUUGAUGUUUUAUGUUCUUUUUUGGACUUUAUCUUCUUGCAAAAAUUUCUACAAAAAU,0.636
GGUAGUCCCCAUGGGACCUUAAAAGACCCAUAGCUGAGUAGUCUCCCUUGUCUACCCUGCUUUAAGAGGGUGAAUGACGGAAUAGACUUUAUGGUGUCAGUGAGUAGUUU,0.505
UUAAGUUGACCAUUCUUUUUGUUUUUCUAAGACACAGAAAUGUAUUUAAUAAAACCUUCAAGAGAGAGUAAUGGACGGAGUGCAUUCUCCUUGAAAACUGUUCAGAGUUU,0.327
UGUGAUACAAGCCCCAGGACACCCCCACCCAAAGAGCCAAAGAAUAGUUCCCGCGACAUUCCGCCUUCCUCCGUUAGCCCCUUGGUAAUCCACCACCAAGCCUGGGGACU,0.641
AAAAAGAAACAAAAAUAUUUUUCCCCCUAAAAUAGGAGAGAGCCAAAACUGACCAAGGCUAUUCAGCAGUGAACCAGUGACCAAAGAAUUAAUUACCCUCCGUUUCCCAC,0.374
CAACGCCUACGUAAUUCGGAUUGAAGCUCCCCAAGCAAGGAUAUGGACAGCAAUGUGAGCAGGCAGUUGAACAGGAAGAGGACAUUUUCUUUGUGGCUUUGGACCUGGAC,1.11
AAGCAAUACCAUACUCAUUUCUAUGUUCCUGUUCCUUCCUCUGCUCCUCCUUUGGAGAAGCAAUAAUUCAUGGGGGAUGAUACAGUAGCACUUUACAAAUGGCUCCAUGU,0.377
GUCCUGAGCUUCCUCUAGCUCACUCUAGAAGUAAUGGUCUAAUCAAAGGUCGUCUGUCUGCUUUUGAUUGUCUACAUCACAGCAAUCCCUGGGAAUUUCUAUCCAUUUUA,0.335
CUCAGCUGCCUCACCCCCUGCACAUGUGCCUGGGGUGUGGCCUAGAAGGGAGUGAUGUUCUUACUCUGGUGGUCUGUGCUUCUGAACACAGGCUACAUGCACACACUGAC,0.281
UAGAGAGAUUUACCAUAUAACUUAUGGACUUUGAAAUGUCUGUCCUUUUAAGGCAGCAGGGAGGCCUGGGUGCGAAGCAUGUUGGCUUGGCCCUUCACGGUCCUGGAGGG,10
CAGAGGUAGGGCAGUGGGCUCUGCAGGCCACCUGGCUGGGGUUGGUGGGGGUCCUCUCUCCUGCCCCAGCUUCCACUCAGCCACCACAGUUGCCACACCAUGGGGUGGAG,0.231

# Study 3 — target: CCND1, cyclin fold, Cln2 fusion (human); technique: yeast growth competition, sequencing; medium: yeast; setting: strong parent motif; baseline: not given; reading: higher = stronger binding
# Starting sequence: RBL2 docking peptide (human); STTRRRLFVENDS; partner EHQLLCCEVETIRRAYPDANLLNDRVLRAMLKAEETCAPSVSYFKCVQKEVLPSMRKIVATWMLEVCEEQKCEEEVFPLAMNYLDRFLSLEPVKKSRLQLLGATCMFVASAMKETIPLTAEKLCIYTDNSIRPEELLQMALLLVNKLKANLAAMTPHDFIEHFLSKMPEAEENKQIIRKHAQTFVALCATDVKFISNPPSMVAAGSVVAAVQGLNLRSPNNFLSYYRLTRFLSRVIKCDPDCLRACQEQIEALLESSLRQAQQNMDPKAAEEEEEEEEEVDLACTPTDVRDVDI
Variant,normalised enrichment score
T3M,-0.448
L7V,-0.297
R6T,0.472
V9M,1.56
S13P,1.17
R5I,0.378
N11F,0.753
T2C,1.14
R6S,1.21
F8P,1.03
F8K,-0.0514
R4N,0.188
L7W,-0.546
V9Y,1.19
D12P,0.612
E10L,-0.272
E10D,1.9
R5E,0.0517

# Other studies, line by line
Substance,target,assay,test system,conditions,scale,quantity,value
"PhoQ, residues 284 288 289 292 302 303 TVTVVA","PhoP, residues 12 14 15 18 19 NHTVL (Escherichia coli, UniProt P23836)","Sort-seq, refers to: YFP reporter",E. coli,"PhoQ-PhoP variant library, added: 10 µM Mg2+","baseline: high Mg2+ state, higher = stronger signaling",fold induction,9.97

# A few entries again (study 3):
Variant,normalised enrichment score
E10D,1.9
T3M,-0.448
V9M,1.56
R5I,0.378
L7V,-0.297
T2C,1.14
D12P,0.612
